Assay results collected from several papers.
Protocols differ between the studies behind these lines. “And” joins repeats or separate records; there may be more than shown.

Nc1ccc(-c2nc([C@H]3CCc4cc(-c5cc(Cl)ccc5-n5cnnn5)cc(=O)n43)c(F)[nH]2)c(F)n1 — half-life (human, plasma; oral, 150 mg, single dose, fasted): 16 h
Cc1nc2cccc(OCC(C)(C)C(=O)NC(C)C)c2c(N)c1C(=O)O — half-life (male Sprague-Dawley rat, plasma; oral gavage, 100 mg/kg, day 7): 0.72 h
Cc1cc(C(=O)NC(C)(C)COc2cccc3c2C(N)=NS(=O)(=O)N3)cc(C)n1 — half-life (female Sprague-Dawley rat, plasma; oral, 10 mg/kg, single dose): 0.749 h
CCN1CCN(c2ccc(Nc3cc(N(C)C(=O)Nc4c(Cl)c(OC)cc(OC)c4Cl)ncn3)cc2)CC1 — half-life (LC-MS/MS; juvenile female Crl:WI(Han) rats, plasma; oral gavage, 0.1 mg/kg/day, postnatal day 17): 4.96 h
CNCc1ccc(-c2[nH]c3cc(F)cc4c3c2CCNC4=O)cc1 — half-life (human, plasma; oral, 40 mg once daily, steady state, mean): 9.23 h
C#C[C@]1(CO)O[C@@H](n2cnc3c(N)nc(F)nc32)C[C@@H]1O — half-life (human, plasma; oral, 15 mg, single dose, fasted, healthy volunteers): 51.4 h
CC(C)(c1ccc(O)cc1)c1ccc(O)cc1 — half-life (GC-MS; exposure tank water with snails, charcoal-filtered tap water; 50 ng/L nominal, 22 °C): 1.06 h
COc1cccc(-c2ccc(NC(=O)C3=C(C(=O)O)CCC3)c(F)c2)c1 — half-life (male human, plasma; oral, 20 mg, single dose, fasted, healthy volunteers): 28 h
Oc1ccc(C(c2ccc(O)cc2)(C(F)(F)F)C(F)(F)F)cc1 — half-life (female rat, plasma; oral, 340 mg/kg, single dose): 44.4 h
C=CC(=O)Nc1cc(Nc2ncc(C(=O)OC(C)C)c(-c3cn(C)c4ccccc34)n2)c(OC)cc1N(C)CCN(C)C — half-life (human, plasma; oral, 20 mg, single dose, fasted, healthy volunteers): 18.1 h
Cn1nnc2c(C(N)=O)ncn2c1=O — half-life (microdialysis; male athymic rat, intracranial U87 glioma, tumour extracellular fluid; oral, 50 mg/kg, before cediranib, recovery-corrected): 1.4 h and 1.6 h and 2.2 h
C[C@@H]1CCC[C@H](n2cnc(-c3cc(Cl)ccc3-n3cc(Cl)nn3)cc2=O)c2cc(ccn2)-c2c(cnn2C(F)F)NC1=O — half-life (human, plasma; oral, 20 mg, single dose, fasted, healthy volunteers): 8.3 h
CCCC[C@H](NC(C)=O)C(=O)N[C@H]1CCC(=O)NC[C@@H](C(=O)N[C@@H](Cc2c[nH]c3ccccc23)C(N)=O)NC(=O)[C@H](CCCNC(=N)N)NC(=O)[C@@H](Cc2ccccc2)NC(=O)[C@H](Cc2c[nH]cn2)NC1=O — half-life (male rat, plasma; subcutaneous, 1 mg/kg/day, multiple doses, once daily): 0.661 h
CCCOc1ccc([C@H]2CNC(=O)N2c2ccc3[nH]cnc3c2)cc1 — half-life (human, plasma; oral, 30 mg, single dose, fasted): 2.3 h

For quick reference, copied from above:
CCCC[C@H](NC(C)=O)C(=O)N[C@H]1CCC(=O)NC[C@@H](C(=O)N[C@@H](Cc2c[nH]c3ccccc23)C(N)=O)NC(=O)[C@H](CCCNC(=N)N)NC(=O)[C@@H](Cc2ccccc2)NC(=O)[C@H](Cc2c[nH]cn2)NC1=O — half-life (male rat, plasma; subcutaneous, 1 mg/kg/day, multiple doses, once daily): 0.661 h
